Results from different studies.
Compare with care: the assays were run in different laboratories. “And” joins repeats or separate records; there may be more than shown. Numbers after ± are the reported error.

| Structure (SMILES) | technique | host | sample | route | dose | time | tissue uptake |
| --- | --- | --- | --- | --- | --- | --- | --- |
| O=C(NCC1OC2CCC=CCCC2O1)c1ccc([18F])nc1 (stereo not shown) |  | healthy female BALB/c nude mice | pancreas | intravenous | 7.4 MBq per mouse | 120 min | 0.3 ± 0.02 %ID/g |
| CCCC[C@H](NC(=O)CCCCCCCNC(=O)CN1CCN(CC(=O)O)CCN(CC(=O)O)CC1)C(=O)N[C@H]1CC(=O)NCCCC[C@@H](C(N)=O)NC(=O)[C@H](Cc2c[nH]c3ccccc23)NC(=O)[C@H](CCCNC(=N)N)NC(=O)[C@@H](Cc2ccccc2)NC(=O)[C@H](Cc2c[nH]cn2)NC1=O [fluorine-18 labelled] |  | C57 mice B16-F10 melanoma | stomach | intravenous | 0.37 MBq | 2 h | 0.65 ± 0.14 %ID/g |
| COc1ccc(Nc2nc(Nc3ccc(OCCOCCOCC[18F])cc3)ncc2Br)cc1 |  | ICR mice, S180 tumour-bearing | bone | intravenous | 370 kBq | 120 min | 3.5 ± 0.34 %ID/g |
| O=C(NCC1OC2CCC=CCCC2O1)c1ccc(COCCOCCOCC[18F])cc1 (stereo not shown) |  | healthy female BALB/c nude mice | brain | intravenous | 7.4 MBq per mouse | 30 min | 2.5 ± 0.01 %ID/g |
| Cc1cc(C)n(CCN(CCN)CCCCCCNC(=O)[C@@H](N)Cc2c[nH]cn2)n1.[99Tc+].[C-]#[O+].[C-]#[O+].[C-]#[O+] |  | BALB/c nude mice, A549 xenograft | blood | intravenous |  | 15 min | 2.8 ± 0.58 %IA/g |
| O=C([O-])CN1CCN(CC(=O)[O-])CCN(CC(=O)NC[C@H]2CC[C@H](C(=O)N[C@H](Cc3cnc4ccccc4c3)C(=O)NCCCC[C@H](NC(=O)N[C@@H](CCC(=O)O)C(=O)O)C(=O)O)CC2)CCN(CC(=O)[O-])CC1.[64Cu+2] | ex vivo gamma counting | 22Rv1 tumour-bearing mice | spleen | intravenous | 0.74 MBq | 24 h post-injection | 4.56 %ID/g |
| CCCC[C@H](NC(=O)CNC(=O)CNC(=O)[C@H](CCCCNC(=O)[C@H](CC(=O)O)NC(=O)C(C)c1ccc(CC(C)C)cc1)NC(=O)CN1CCN(CC(=O)O)CCN(CC(=O)O)CCN(CC(=O)O)CC1)C(=O)N[C@H]1CC(=O)NCCCC[C@@H](C(N)=O)NC(=O)[C@H](Cc2c[nH]c3ccccc23)NC(=O)[C@H](CCCNC(=N)N)NC(=O)[C@@H](Cc2ccccc2)NC(=O)[C@H](Cc2c[nH]cn2)NC1=O (stereo partly shown) [lutetium-177 labelled] |  | C57 mice, tumour-bearing | lung | intravenous | 0.037 MBq | 4 h | 0.58 ± 0.12 %ID/g |
| N#C[C@@H]1CCCN1C(=O)CNC(=O)c1ccnc2ccc(OCCCN3CCN(C(=O)CCc4ccc5c(c4)CN4CCN6CC(=O)[O][68Ga-]([O]C(=O)C4)([O]5)[O]c4ccc(CCC(=O)N5CCN(CCCOc7ccc8nccc(C(=O)NCC(=O)N9CCC[C@H]9C#N)c8c7)CC5)cc4C6)CC3)cc12 |  | BALB/c nude mice, U-87 MG xenograft | lung |  |  | 1 h | 2.38 ± 0.4 %ID/g |
| COc1ccc2c(c1)C(C)(C)C(/C=C/C1=C(Oc3ccc(C(=O)NCCCCOc4cc(CN(Cc5ccccn5)Cc5ccccn5)cc(CN(Cc5ccccn5)Cc5ccccn5)c4)cc3)C(=C/C=C3/N(CCCCS(=O)(=O)[O-])c4ccc(OC)cc4C3(C)C)CCC1)=[N+]2CCCCS(=O)(=O)[O-].O=[N+]([O-])[O-].O=[N+]([O-])[O-].[99Tc+].[C-]#[O+].[C-]#[O+].[C-]#[O+].[Zn+2] |  | healthy BALB/c mice | lungs |  |  | 12 h | 1.79 %ID/g and 1.31 %ID/g and 2.26 %ID/g and 1.36 %ID/g |
| COc1ccc(Nc2nc(Nc3ccc(OCCOCC[18F])cc3)ncc2Br)cc1 |  | ICR mice, S180 tumour-bearing | bone | intravenous | 370 kBq | 120 min | 4.51 ± 0.71 %ID/g |
| CC(C)C[C@H](NC(=O)[C@@H](CCCCNC(=O)[C@@H](Cc1ccccc1)NC(=O)CCCCCCCNC(=O)CN1CCN(CC(=O)O)CCN(CC(=O)O)CCN(CC(=O)O)CC1)NC(=O)[C@H](Cc1ccc(O)cc1)NC(=O)[C@H](CO)NC(=O)[C@H](Cc1c[nH]c2ccccc12)NC(=O)[C@H](Cc1c[nH]cn1)NC(=O)[C@@H]1CCC(=O)N1)C(=O)N[C@@H](CCCNC(=N)N)C(=O)N1CCC[C@H]1C(=O)NCC(N)=O [indium-111 labelled] | biodistribution | male athymic nude mice, DU-145 prostate cancer xenograft | stomach | intravenous | 0.037 MBq | 0.5 h post-injection | 1.11 ± 0.66 %ID/g |
| O=C(O)CCCOc1ccc([18F])cc1-c1cc(-c2ccccc2C(F)(F)F)n(-c2ccccc2)n1 |  | mice | bladder and urine | intravenous |  | 15 min | 0.06 ± 0.01 %ID/g |
| CCCC[C@H](NC(=O)CNC(=O)CNC(=O)[C@H](CCCCNC(=O)[C@H](CC(N)=O)NC(=O)C(C)c1ccc(CC(C)C)cc1)NC(=O)CN1CCN(CC(=O)O)CCN(CC(=O)O)CCN(CC(=O)O)CC1)C(=O)N[C@H]1CC(=O)NCCCC[C@@H](C(N)=O)NC(=O)[C@H](Cc2c[nH]c3ccccc23)NC(=O)[C@H](CCCNC(=N)N)NC(=O)[C@@H](Cc2ccccc2)NC(=O)[C@H](Cc2c[nH]cn2)NC1=O (stereo partly shown) [lutetium-177 labelled] |  | C57 mice, tumour-bearing | spleen |  |  | 2 h | 1.76 ± 0.39 %ID/g |
